Published values collected from several papers.
Parts stem from different laboratories: compare values within a part only.

Study 1
Target: RING finger protein unkempt homolog, zinc fingers 1-6, GST-SBP tag (UNK, Homo sapiens, UniProt Q9C0B0, residues 30-357)
Technique: RNA Bind-n-Seq
Form: RNA
Medium: in vitro
Concentration: not given
Setting: RNA with constant flanks, ends assumed
Baseline: input RNA pool
Direction: higher = stronger binding
Quantity: bound/input enrichment
Shared flanks, not repeated: GGGAGUUCUACAGUCCGACGAUC … CAACAGAGGAUUGAGCAUCA
Target sequence (chain): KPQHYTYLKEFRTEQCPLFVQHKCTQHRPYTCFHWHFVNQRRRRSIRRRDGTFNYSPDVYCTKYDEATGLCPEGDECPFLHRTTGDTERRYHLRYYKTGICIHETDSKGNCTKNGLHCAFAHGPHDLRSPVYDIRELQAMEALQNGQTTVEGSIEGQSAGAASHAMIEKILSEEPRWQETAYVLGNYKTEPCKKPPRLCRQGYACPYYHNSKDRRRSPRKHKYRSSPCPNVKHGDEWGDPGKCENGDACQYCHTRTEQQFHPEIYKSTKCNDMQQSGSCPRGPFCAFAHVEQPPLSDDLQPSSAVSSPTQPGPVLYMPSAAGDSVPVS
CUUGGCCAGCUCCACCACUGUCAGGUUCUCCAGUUCUGACUGGGGUUGUGGUGAUGGCGGCCGGUGGGAAGAUCCACCCUGGCUCAGGAGCCUGACUUGACACUGGUUCUUUCAGCCCUA: 0.0855 ratio
AGACUGGAGAGAAUAAAGAGCAGUCGCAAAUGAAGCUGCCCACCCUCGGCACUCUGCAGCUUCCGUUACUGAUCUAGAAGCCCUGUAGUGUGAAGCGGCCGCUGCAGGCCAUUGUACACA: 0.286 ratio
UCCACAACAGGUUCCUGACGGAGACUUCGCCCUUCAUGUGGUCCAACCUGGGCAUUGGCCCCGCUAUCUCCCUGUCUGUGGUUGGGGCAGCCUGGGGCAUCUAUAUUACCGGCUCCUCCA: 0.0909 ratio
UCCUCCUGCCUCUGCCUCCUGAGUGCUUCAUUAAAGGCUAUGCCACUACACCUGGGAACACCGUUUCUAAGAAAGCUUCUUGUCUUUUCAUUUGGCAGGUAUCAUGUUCAUUUGUUGUUU: 0.199 ratio
UCUGCUCGGAAGAUGCGUCUGGGAGAUGCUGUUGAACAGGGUGUGAUUAACAACUCAGUAUCCGGCUAUUUUAUUGGCCGCAUCUACCUCUACCUCACGAAGGUUGGAAUAUCUCCUGAU: 0.0711 ratio
CUGCAUUAUUUGACCAGAGUUGAAGUGACAGAAUUUGAAGAUAUUAAAUCAGGUUACAGAACCGAUUUUUAUUUUGAUGAAAAUCCUUACUUUGAAAAUAAAGUUCUCUCCAAAGAAUUU: 0.116 ratio

Study 2
Target: Sal-like protein 4, full length isoform A (SALL4, Homo sapiens, UniProt Q9UJQ4, residues 1-1053)
Chain of UniProt Q9UJQ4 (whole entry, looked up): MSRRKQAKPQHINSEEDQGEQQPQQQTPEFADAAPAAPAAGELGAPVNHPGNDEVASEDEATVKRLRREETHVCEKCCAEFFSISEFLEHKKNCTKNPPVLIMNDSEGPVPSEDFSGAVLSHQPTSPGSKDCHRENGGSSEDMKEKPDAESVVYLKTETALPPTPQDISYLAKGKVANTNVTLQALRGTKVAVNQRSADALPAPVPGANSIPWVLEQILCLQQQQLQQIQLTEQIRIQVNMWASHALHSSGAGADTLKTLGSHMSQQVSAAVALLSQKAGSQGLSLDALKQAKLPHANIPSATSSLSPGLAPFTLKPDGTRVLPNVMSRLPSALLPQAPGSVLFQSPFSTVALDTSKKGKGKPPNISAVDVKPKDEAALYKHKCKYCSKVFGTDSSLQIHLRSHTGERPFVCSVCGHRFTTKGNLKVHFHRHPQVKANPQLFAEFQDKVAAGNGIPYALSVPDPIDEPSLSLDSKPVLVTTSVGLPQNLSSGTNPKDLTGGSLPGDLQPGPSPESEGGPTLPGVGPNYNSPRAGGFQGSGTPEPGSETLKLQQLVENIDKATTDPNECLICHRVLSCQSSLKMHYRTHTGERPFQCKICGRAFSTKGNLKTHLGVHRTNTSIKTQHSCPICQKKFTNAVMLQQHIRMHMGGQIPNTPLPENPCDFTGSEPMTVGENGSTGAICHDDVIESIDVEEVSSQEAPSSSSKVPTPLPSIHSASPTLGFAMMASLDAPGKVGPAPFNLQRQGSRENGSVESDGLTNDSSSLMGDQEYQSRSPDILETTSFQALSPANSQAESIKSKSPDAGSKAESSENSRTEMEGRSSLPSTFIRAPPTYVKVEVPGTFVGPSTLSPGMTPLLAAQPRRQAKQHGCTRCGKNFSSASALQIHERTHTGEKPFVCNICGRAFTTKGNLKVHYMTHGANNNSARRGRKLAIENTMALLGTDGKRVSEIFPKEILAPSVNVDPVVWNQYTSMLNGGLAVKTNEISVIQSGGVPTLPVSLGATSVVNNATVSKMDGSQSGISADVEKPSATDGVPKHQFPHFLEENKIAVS
Technique: universal PBM
Form: double-stranded DNA, one strand shown
Medium: in vitro
Concentration: 600 nM
Setting: 8-mer, flanks averaged, mean of replicates
Direction: higher = stronger binding
Quantity: E-score
CTACAATC: 0.2
AATTGGGG: -0.0818
ACCATCCG: -0.176
GGAAATGA: 0.234
AGCCGCAA: -0.203
ACGCTGTC: -0.268
CCCCGAAG: -0.166
AACGGGTG: -0.149
AGGGCAGC: -0.318
GTACGAGA: 0.13
CCGTTCGC: -0.273
AGATGCGG: -0.108
AGAAATAG: 0.256
ATACCCTA: 0.161
AACTGTCC: -0.173

Study 3
Target: Prothrombin, mature alpha-thrombin (F2, Homo sapiens, UniProt P00734)
Technique: aptamer microarray, sandwich
Form: DNA with 2'F-ANA
Medium: in vitro
Concentration: 200 nM
Setting: whole 15-mer aptamer, many near background
With: Cy3 exosite-II aptamer, 400 nM
Direction: higher = stronger binding
Quantity: mean fluorescence intensity
Strand: GGTTGGTGTGGTTGG
2'F-ANA at 3 6 7 8 10 13: 568 a.u.
2'F-ANA at 1 2 3 5 6 7 8 9 10 11: 50.5 a.u.
2'F-ANA at 2 3 4 5 8 10 11 12: 57.4 a.u.
2'F-ANA at 2 3 5 10 13: 51 a.u.
2'F-ANA at 4 5 8 10 11 12 14 15: 154 a.u.
2'F-ANA at 4 5 6 7 11 12 13: 73.4 a.u.
2'F-ANA at 1 3 4 7 8 9 10 12 13: 73.3 a.u.
2'F-ANA at 1 3 5 6 9 10 12: 47.8 a.u.
2'F-ANA at 3 4 6 8 9 13 15: 395 a.u.
2'F-ANA at 1 3 4 5 9 10 12 15: 56.6 a.u.
2'F-ANA at 1 2 3 4 7 8 14 15: 81.4 a.u.
2'F-ANA at 2 4 5 6 8 9 10 14: 59.7 a.u.
2'F-ANA at 1 3 4 7 8 9 10 11 12: 91.2 a.u.

Other studies, line by line
PhoQ, residues 284 288 289 292 302 303 SACGEM  fold induction (PhoP, residues 12 14 15 18 19 IQFRS (Escherichia coli, UniProt P23836); Sort-seq, refers to: YFP reporter; E. coli; PhoQ-PhoP variant library, with: 10 µM Mg2+; baseline: high Mg2+ state, higher = stronger signaling): 6.21

For quick reference, copied from above (study 2):
GTACGAGA: 0.13
CCGTTCGC: -0.273
AGATGCGG: -0.108
AGAAATAG: 0.256
